Results pooled from the literature.
Parts stem from different laboratories: compare values within a part only. Changes are numbered by the printed parent chain.

Series 1
Target: RING finger protein unkempt homolog, zinc fingers 1-6, GST-SBP tag (UNK, Homo sapiens, UniProt Q9C0B0, residues 30-357)
Chain of UniProt Q9C0B0 (30-357, looked up): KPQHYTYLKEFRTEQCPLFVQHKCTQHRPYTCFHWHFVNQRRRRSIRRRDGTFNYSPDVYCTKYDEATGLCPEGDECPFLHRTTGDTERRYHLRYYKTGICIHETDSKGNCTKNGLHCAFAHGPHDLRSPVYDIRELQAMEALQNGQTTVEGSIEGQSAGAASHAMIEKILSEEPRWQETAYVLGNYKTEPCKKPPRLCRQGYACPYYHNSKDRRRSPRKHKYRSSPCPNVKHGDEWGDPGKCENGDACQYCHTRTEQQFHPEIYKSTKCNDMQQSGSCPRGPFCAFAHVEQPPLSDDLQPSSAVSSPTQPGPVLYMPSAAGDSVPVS
Method: RNA Bind-n-Seq
Form: RNA
Medium: in vitro
Concentration: not given
Setting: RNA with constant flanks, human-mouse chimeric sites, ends assumed
Reference: input RNA pool
Reading: higher = stronger binding
Quantity: bound/input enrichment
Shared flanks, not repeated: GGGAGUUCUACAGUCCGACGAUC … CAACAGAGGAUUGAGCAUCA
CCUCUGCCCCGCUCUGCCCCUGCCUGCCACUGGGCUGGGACCAGAAUCCAGCUUUCUUUUAAAACUCUCAGUGUAACUGUAUCCCGUGACAUUUCAUUUUUUUUAAAUAGUGUAUUUUUU: 4.54 ratio
UAACCACAUCAAGAUGGUUGGAAAGCUGAAGCAGAACUUACUCUUGGCGUGUCUGGUGAUUAGUUCUGUGACCGUGUUUUACCUGGGCCAGCAUGCCAUGGAAUGCCAUCACCGAAUAGA: 0.167 ratio
AGAAUCUUGGGACUGUUUUACUUAAUUGGUCAUUGGUAGCUUAACAAACAUGGAGAUAAGAUUAGAAAUCUUGACAUCAACAGGUAUUAAGCAGAAAAAACCAUGGCCCAGAGUAUCCUG: 0.104 ratio
GAAUCCUACUCAGGCGGAUUUUGCAACACCAAGCUCACAGCAGCAGCUCCAUAGUCACAGUAGGGUAGUUUUGGGGCUCUGUGGCCAUGGUUUUACUCACAUGCAGGUUUGGAAAAUGUA: 1.02 ratio
CGGAAGUUCUUGAUUUAUCAUUUUUCUCUUUUCUUUCUUUCCUUUAGGAAAAGCCUAAAGAUUAGGUUGUAAGAAAAACAGAAGCCAUGUUUCGAAGACCUGUGUUACAGGUAUUUCGUC: 0.166 ratio
AGAUUCCCCCUCCUGAGGCCUUCUCCAAAGUUGGAGUCUCUUACAGAUGCCUCAUCCCCUGUUAGCGUUUUAGUUUGGACCACCCAGCCUUGGACAAUUCCAGCCAACCAGGCAAUUUGC: 1.34 ratio
AGUGUGCAGGAAUUCAUGACCUUUACAAGUCAACUGAUUGUGGAACGCUCGGGGAAAGGCAGCAGAGCUUCUGUCAAAGAACAAGAGUAUCUGUGCCAUGUCUACGUCCGGAAUGAUAGU: 0.125 ratio

Series 2
Target: RNA binding protein fox-1 homolog 2, RRM domain, GST-SBP tag (RBFOX2, Homo sapiens, UniProt O43251-10, residues 100-194)
Method: RNA Bind-n-Seq
Form: RNA
Medium: in vitro
Concentration: 365 nM
Setting: natural RNA segment, single round, ends assumed
Reference: no-protein control
Reading: higher = stronger binding
Quantity: RBNS enrichment (R)
Shared flanks, not repeated: GGGAGUUCUACAGUCCGACGAUC … UGGAAUUCUCGGGUGCCAA
Target sequence (chain): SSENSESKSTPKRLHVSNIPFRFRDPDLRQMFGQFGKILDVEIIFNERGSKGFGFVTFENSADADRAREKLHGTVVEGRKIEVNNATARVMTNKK
CCCGGUCCCCUUUUCUUUAUUAUCGAAGAUAUUGUUUAAAAGAAAGAAAAAGUAGGUCCCAAUAAUAUAUGUGCUAUUCAAAAAAUGUGAUCAUUUAGGACAUUAUCACA: 0.638
UGCCCCCACUCACCAAGGCCUCGCUCGUCCCUCUCGUCUGACAUGUCUGUGUGCACCCCCCUCCUCUCCACCCUACCUUCCAUCAACCAGGGCAGAUCCACCGUGCCCUG: 1.34
GGGCCAGGUCUGCCCAGCGUUUACCACUGCUGUCAAGCCACAGCCCUUGGCCACCAUACGGGCCAUCCUCAGUGAGGCAGCCCCCCAUAGGCUUCCGCCAAGCUCUGGUC: 0.224
UUUAUUGUACCUAUGCCUGGGUGCUAAAGGUCAUGUAAGGACUAGUUCCUUUGAGGAGGACCCCCUGGGAGCAGUCAAGCUGGAAGAUAGCUACCUGCAAGACACUACUG: 0.321
AUUCUAUCACAGCACAGCAGGUCGAGAGUUAACACCUGGAUGACAUGGUGGUGGAUAUUUGGGUCUGUGAAAUCUGAAAAAAACAAAGGUCUAUUCGGAUUGCAUAGGGG: 1.01
AGGGCUAAGGCACAGUAUUUGAAACCAUUAAAUGUGUUCUUUGGAGAAGUCUGGUUAACAUCCAUCAGCAGAAUGAGUUAAAACACACAAUGAAUUCAAUCUAUCAGGAU: 1.09
UAGGAUUCUCACCGUGGGGCUGGAAGAAAAGAGCAUCGACUUGAUUUCUCCAACCACUCAUCCCUCUUUUUCUUUCUUCCACCACUCCCCACCCCAGCUGUAGUUAAUUU: 1.07
AGAGGGACUUCGAUGCCAAACCAGACUCGGGUCCCCUCCUGCUUCCCUUCCCCACUUAUCCCCCAAGUGCCUUCCCUCAUGCCUGGGCCGGCCUGACCCGCAAUGGGCAG: 0.36
CAUCCCAACCAGAGAUGGCUCACUUCGGAUCGAGGGUUGACUACAUCUCAUCAUCUCACGAAUCUGCUGUAAUAUAAGACAACAGCUUUUAAAUGUGUAUAUAACCCAUG: 0.257
AGCUUUAGUUUAAACAAAAGUAUUGUAUACAGGAACUAUGUAUAGUGCAGGGGUUCUUUUCAGUUAGAAAAGGCAGGUUGCUUUAAUGUUAUUCUGACUCGCAUUGUUUG: 0.419
UAGAUUAUUUUCAGAUUUUGGAAUGUUUGCAUAUACAUAAUGAGAUAUUUUGGGAAUAGGACCCGAGCCUAAACACAAAAUUCAUUGAUGUGUCAGUUACACCUUAUCCA: 0.363
UACUUGAAGUACUUGCCUUUUUUGUUUCCUCAGUUUUAUGUUCUUGCAUUAUAAUUUUAUCCUAACCUCCAAAGAUAUUUGCACUGCUUUUAAUUACUGCUGUAUAUUUG: 1.37

Series 3
Target: Ras GTPase-activating protein-binding protein 1, full length (G3BP1, Homo sapiens, UniProt Q13283)
Chain of UniProt Q13283 (whole entry, looked up): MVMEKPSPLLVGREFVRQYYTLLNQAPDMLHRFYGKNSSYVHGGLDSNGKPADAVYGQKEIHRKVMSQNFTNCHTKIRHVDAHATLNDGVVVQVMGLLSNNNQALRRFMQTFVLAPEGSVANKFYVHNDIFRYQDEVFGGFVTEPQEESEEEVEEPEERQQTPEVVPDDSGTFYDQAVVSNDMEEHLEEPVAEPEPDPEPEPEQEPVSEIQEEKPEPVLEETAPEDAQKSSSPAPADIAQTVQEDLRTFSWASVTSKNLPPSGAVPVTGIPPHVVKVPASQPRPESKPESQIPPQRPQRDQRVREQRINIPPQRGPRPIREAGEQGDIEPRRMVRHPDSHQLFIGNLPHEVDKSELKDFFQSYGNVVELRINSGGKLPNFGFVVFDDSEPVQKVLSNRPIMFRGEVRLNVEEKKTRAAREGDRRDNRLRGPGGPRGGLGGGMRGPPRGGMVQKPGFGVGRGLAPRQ
Method: RNA Bind-n-Seq
Form: RNA
Medium: in vitro
Concentration: 200 nM
Setting: whole 134-nt RNA, ends assumed
Together with: 150 mM LiCl
Reference: input library
Reading: higher = stronger binding
Quantity: log2 enrichment
All molecules: 7-deaza-guanosine replaces G
Shared flanks, not repeated: GGGAGUUCUACAGUCCGACGAUC … UGGAAUUCUCGGGUGUCAAGG
UGGGAGGUGGAUUUUGUUUAUUUUUUUAGCUCAUUUUCAGGGGUGGGAAUUUUUUUUUAAUAUGUGUCAUGAAUAAAGUUGUUUUUGAAA: 0.486
AAGUCCUGUGCUACACAUCGUAUGUACCGAAUCGGUUUUGGGGUUUUGGGUUUUGGGAAAGUAUUAUGUUACGCCGUUCGGAUCUGCACU: -0.0529
UGGCCCUGGUGGCAUGCGGGGAGGAAGAGGUGGCCUCAUGGAUCGUGGUGGUCCCGGUGGAAUGUUCAGAGGUGGCCGUGGUGGAGACAG: -0.327
AGUCCUGUGCUACACAUCGUAUGUACCGAAUCGGAAAAAAAGGUUUGGAAAAAAAGGAAAGUAUUAUGUUACGCCGUUCGGAUCUGCACU: -2.13
UAACUUUAGAGGAGGAUCUGAUGGACAUGGCAGUGGACGUGGAUUUGGGGAUGGCUAUAAUGGGUAUGGAGGAGGACCUGGAGGUGGCAA: -0.233
GUCCUGUGCUACACAUCGUAUGUACCGAAUCAAACCCCCAAACCCAAACCCCCCCAAAAAAGUAUUAUGUUACGCCGUUCGGAUCUGCAC: -0.769
UCAAGUCCUGUGCUACACAUCGUAUGUACCGAAUCGGGGUUGGGUUGGGGUUGGGAAAGUAUUAUGUUACGCCGUUCGGAUCUGCACUUC: -0.179
CCUGUGCUACACAUCGUAUGUACCGAAUCGGGCCCCCCCGGGCCCCCCCGGCCCCCCCGGAAAGUAUUAUGUUACGCCGUUCGGAUCUGC: 0.392
UAGUGAUGGUCCUAAAUAGCAUGAGUGUCAGCUGGAGCGCCCGGAUCCAGAUUUUCUUAACCUUUUGCAAGCUCACAGCAAUUCUGAUAA: -1.98
UAACUUUAGAGGAGGAUCUGAUGGAUAUGGCAGUGGACGUGGAUUUGGGGAUGGCUACAAUGGGUAUGGAGGAGGACCUGGAGGUGGCAA: -0.158
GUCCUGUGCUACACAUCGUAUGUACCGAAUCGGGGUUUUUGGGGAGGGGAAAAAGGGGAAAGUAUUAUGUUACGCCGUUCGGAUCUGCAC: 0.11

Series 4
Target: CCND2, cyclin fold, Cln2 fusion (human)
Method: yeast growth competition, sequencing
Medium: yeast
Setting: weak parent motif
Reference: not given
Reading: higher = stronger binding
Quantity: normalised enrichment score
Starting sequence: RB1 docking peptide (human); PKPLKKLRFDIEG; partner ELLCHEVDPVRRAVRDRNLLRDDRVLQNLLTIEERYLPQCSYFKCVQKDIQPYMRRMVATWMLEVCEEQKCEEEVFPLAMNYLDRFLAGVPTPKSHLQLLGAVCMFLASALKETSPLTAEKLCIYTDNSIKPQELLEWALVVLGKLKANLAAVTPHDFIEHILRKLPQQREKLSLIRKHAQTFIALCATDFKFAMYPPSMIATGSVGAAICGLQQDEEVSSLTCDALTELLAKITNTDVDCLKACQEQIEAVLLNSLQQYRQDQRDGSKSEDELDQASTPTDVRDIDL
P3Y: 0.357
I11A: 0.709
P3M: -0.0948
P1T: 0.455
K5F: -0.0233
I11D: 0.0463
P3R: 0.322
R8P: 0.289
D10T: 0.163
G13D: 0.476
L7V: 0.529
E12R: -0.219
D10E: -0.0887
F9R: -0.0245
I11Y: 0.445
E12Y: 0.05
P1D: 0.801
P3H: -0.384
K6Q: 0.28
L7E: 0.116
L4M: 0.339
K6W: 0.254

Series 5
Target: ABI1, truncated, D143A, DHFR fusion (Arabidopsis thaliana)
Method: DHFR PCA, deep sequencing
Medium: yeast
Setting: methotrexate growth selection, single substitutions
Together with: (+)-ABA 4.8 µM
Reference: wild-type fitted maximum
Reading: higher = stronger binding
Quantity: relative binding score
Starting sequence: PYL1, truncated, DHFR fusion (Arabidopsis thaliana); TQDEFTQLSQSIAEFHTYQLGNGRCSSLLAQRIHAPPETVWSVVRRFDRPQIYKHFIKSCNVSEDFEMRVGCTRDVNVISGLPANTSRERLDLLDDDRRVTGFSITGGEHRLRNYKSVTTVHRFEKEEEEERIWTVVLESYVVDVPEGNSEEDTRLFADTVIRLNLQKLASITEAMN; partner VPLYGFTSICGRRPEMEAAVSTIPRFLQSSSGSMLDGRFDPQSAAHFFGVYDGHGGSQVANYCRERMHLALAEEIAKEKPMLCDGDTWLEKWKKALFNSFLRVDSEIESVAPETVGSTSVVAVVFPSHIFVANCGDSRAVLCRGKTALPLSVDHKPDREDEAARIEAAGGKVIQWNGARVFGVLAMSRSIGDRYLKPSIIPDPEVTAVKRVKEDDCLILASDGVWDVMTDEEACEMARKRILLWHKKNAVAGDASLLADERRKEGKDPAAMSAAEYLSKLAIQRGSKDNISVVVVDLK
E152Q: 69%
E147D: 74.2%
E64Q: 75.6%
S63L: 47.1%
L138S: 8.35%
D153E: 91.9%
V118T: 77%
W41R: 21.7%
R74Q: -14.1%
S140N: -10.2%
P146M: 11.7%
V70A: 53.6%
N77T: 87.3%
Y115H: 11.2%
Q19S: 74.2%
D48S: 2.57%
Q7T: 70.5%
K54H: -1.03%
Q167W: 14.2%
E125L: 70.2%
N149W: -8.26%
H16S: -15%

Repeated from above (series 5):
V118T: 77%
W41R: 21.7%
R74Q: -14.1%
S140N: -10.2%
